Published values pooled from the literature.
Parts stem from different laboratories: compare values within a part only.

Set 1
Target: Interferon regulatory factor 3, full length, phosphomimetic (IRF3, Homo sapiens, UniProt Q14653, residues 1-427, S386D/S396D/S398D/S402D/T404D/S405D)
Method: protein-binding microarray
Molecule type: double-stranded DNA, one strand shown
Medium: in vitro
Concentration: 2540 nM top
Setting: 60-bp whole probe
Together with: salmon DNA 0.4 mg/ml
Reference: random background probes
Reading: higher = stronger binding
Shared flanks, not repeated: GCCTAGCAC … GTCTTGATTCGCTTGACGCTGCTG
Construct (chain): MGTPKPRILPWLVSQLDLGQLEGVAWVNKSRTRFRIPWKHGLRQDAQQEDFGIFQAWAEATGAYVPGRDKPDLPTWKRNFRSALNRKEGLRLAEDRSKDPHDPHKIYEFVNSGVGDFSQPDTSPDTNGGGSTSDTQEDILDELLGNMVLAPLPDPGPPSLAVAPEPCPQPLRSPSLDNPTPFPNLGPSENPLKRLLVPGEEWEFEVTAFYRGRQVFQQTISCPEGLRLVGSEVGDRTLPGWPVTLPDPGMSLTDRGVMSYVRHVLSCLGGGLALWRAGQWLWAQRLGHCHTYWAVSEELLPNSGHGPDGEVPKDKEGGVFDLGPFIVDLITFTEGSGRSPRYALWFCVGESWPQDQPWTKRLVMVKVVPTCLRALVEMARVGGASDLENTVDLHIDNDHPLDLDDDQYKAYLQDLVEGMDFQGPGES
| Strand | fitted relative affinity |
| --- | --- |
| GACGGTATCGGGTTTCAGGACGTGCTA | 2.74 z-score |
| TCACTTTCCTTTATGTAACTGTGCTAG | 7.75 z-score |
| GACGGTTTCCTTTCCCTAACGTGCTAG | 10.4 z-score |
| TTAGACCTGGGGTTTCGATTAGTGCTA | 1 z-score |
| TTAGGACAGGGGTATCGGTTAGTGCTA | 0.0993 z-score |
| GACGAACTAAGTCTCGAGACGTGCTAG | -0.0451 z-score |

Set 2
Target: Sal-like protein 4, full length isoform A (SALL4, Homo sapiens, UniProt Q9UJQ4, residues 1-1053)
Chain of UniProt Q9UJQ4 (whole entry, looked up): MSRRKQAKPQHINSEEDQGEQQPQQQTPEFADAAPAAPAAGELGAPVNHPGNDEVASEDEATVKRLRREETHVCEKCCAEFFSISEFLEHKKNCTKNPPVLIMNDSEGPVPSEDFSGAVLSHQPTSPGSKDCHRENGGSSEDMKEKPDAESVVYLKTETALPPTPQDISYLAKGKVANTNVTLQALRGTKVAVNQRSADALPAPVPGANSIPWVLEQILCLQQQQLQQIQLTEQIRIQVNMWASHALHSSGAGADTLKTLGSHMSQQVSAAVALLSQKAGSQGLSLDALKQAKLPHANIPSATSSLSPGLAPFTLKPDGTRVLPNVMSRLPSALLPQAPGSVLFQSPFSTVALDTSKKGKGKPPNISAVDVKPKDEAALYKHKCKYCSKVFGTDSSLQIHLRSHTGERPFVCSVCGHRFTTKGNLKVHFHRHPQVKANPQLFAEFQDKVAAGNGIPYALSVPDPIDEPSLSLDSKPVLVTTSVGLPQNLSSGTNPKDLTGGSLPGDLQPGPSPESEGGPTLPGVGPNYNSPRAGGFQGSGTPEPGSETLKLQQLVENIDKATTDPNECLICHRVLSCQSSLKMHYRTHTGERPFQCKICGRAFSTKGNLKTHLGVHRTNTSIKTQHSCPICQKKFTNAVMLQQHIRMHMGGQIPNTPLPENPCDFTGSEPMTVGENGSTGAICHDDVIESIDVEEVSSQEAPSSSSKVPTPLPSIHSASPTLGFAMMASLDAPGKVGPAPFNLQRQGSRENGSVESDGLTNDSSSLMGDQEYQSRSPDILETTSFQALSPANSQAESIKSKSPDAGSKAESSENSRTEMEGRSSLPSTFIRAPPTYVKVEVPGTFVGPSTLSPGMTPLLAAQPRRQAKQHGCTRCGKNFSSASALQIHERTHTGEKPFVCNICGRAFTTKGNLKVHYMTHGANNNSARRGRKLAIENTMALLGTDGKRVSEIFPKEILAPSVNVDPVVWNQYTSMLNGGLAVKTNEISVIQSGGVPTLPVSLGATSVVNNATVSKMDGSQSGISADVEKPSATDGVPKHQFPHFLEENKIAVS
Method: universal PBM
Molecule type: double-stranded DNA, one strand shown
Medium: in vitro
Concentration: 600 nM
Setting: 8-mer, flanks averaged, mean of replicates
Reading: higher = stronger binding
| Strand | E-score |
| --- | --- |
| CTCCAGAC | -0.0161 |
| CACACGCA | -0.251 |
| AGTGGCAC | -0.274 |
| GATCTGAC | -0.11 |
| CGGAACTC | -0.218 |

Set 3
Target: Histone acetyltransferase KAT6A, both winged helices, GST fusion (KAT6A, Homo sapiens, UniProt Q92794, residues 1-181)
Method: protein binding microarray
Molecule type: double-stranded DNA, one strand shown
Medium: in vitro
Concentration: not given
Setting: 8-mer, flanks averaged, mean of 2 arrays, mostly near background
Reference: not given
Reading: higher = stronger binding
Residues (chain): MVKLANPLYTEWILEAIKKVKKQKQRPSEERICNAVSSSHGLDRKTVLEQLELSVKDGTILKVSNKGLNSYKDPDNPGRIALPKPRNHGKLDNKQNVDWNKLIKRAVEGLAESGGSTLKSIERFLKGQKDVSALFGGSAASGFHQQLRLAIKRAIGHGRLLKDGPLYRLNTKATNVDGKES
| Strand | E-score |
| --- | --- |
| CAAGTCAG | -0.157 |
| TTTATAAA | 0.195 |
| ATTAACCG | 0.213 |

Single results of other studies
| Molecule | target | assay | system | setting | scale | quantity | result |
| --- | --- | --- | --- | --- | --- | --- | --- |
| PhoQ, residues 284 288 289 292 302 303 WVSSAF | PhoP, residues 12 14 15 18 19 NHFIF (Escherichia coli, UniProt P23836) | Sort-seq, measured: YFP reporter | E. coli | PhoQ-PhoP variant library, together with: 10 µM Mg2+ | reference: high Mg2+ state, higher = stronger signaling | fold induction | 3.03 |

A few entries again (single results of other studies):
| Molecule | target | assay | system | setting | scale | quantity | result |
| --- | --- | --- | --- | --- | --- | --- | --- |
| PhoQ, residues 284 288 289 292 302 303 WVSSAF | PhoP, residues 12 14 15 18 19 NHFIF (Escherichia coli, UniProt P23836) | Sort-seq, measured: YFP reporter | E. coli | PhoQ-PhoP variant library, together with: 10 µM Mg2+ | reference: high Mg2+ state, higher = stronger signaling | fold induction | 3.03 |
